# Results from different studies.
# Each numbered part is a random draw from the data of one study; scales do not carry over between parts. Positions count from the first letter of the parent shown.

# Study 1
# Target: Ras GTPase-activating protein-binding protein 1, RRM domain (G3BP1, Homo sapiens, UniProt Q13283)
# UniProt Q13283, sequence (whole entry, looked up): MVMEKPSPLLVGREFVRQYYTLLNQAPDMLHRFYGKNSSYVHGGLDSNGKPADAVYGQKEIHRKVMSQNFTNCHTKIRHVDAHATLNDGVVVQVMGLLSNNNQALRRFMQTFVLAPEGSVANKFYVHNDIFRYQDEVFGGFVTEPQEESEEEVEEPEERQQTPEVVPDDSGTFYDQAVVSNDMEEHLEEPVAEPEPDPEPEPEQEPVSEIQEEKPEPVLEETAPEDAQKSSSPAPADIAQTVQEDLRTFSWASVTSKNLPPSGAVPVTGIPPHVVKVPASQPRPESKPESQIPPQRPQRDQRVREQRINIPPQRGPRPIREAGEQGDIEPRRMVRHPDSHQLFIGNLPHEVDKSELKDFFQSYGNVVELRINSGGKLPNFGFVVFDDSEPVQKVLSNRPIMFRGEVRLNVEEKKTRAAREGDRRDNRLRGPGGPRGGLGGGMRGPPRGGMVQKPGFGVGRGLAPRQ
# Method: RNA Bind-n-Seq
# Form: RNA
# Medium: in vitro
# Tested at: 1 µM
# Setting: whole 134-nt RNA, ends assumed
# With: 150 mM KCl
# Reference: input library
# Reading: higher = stronger binding
Strand,log2 enrichment
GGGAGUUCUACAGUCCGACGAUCUCAAGUCCUGUGCUACACAUCGUAUGUACCGAAUCGGGGCCGGGGCCGGGGCCGGAAAGUAUUAUGUUACGCCGUUCGGAUCUGCACUUCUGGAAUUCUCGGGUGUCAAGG,-1.75
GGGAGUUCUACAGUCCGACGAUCCUGUGCUACACAUCGUAUGUACCGAAUCGGGGUUUUUGGGGAAAAAGGGGAAAAAAAGGGGAAAGUAUUAUGUUACGCCGUUCGGAUCUGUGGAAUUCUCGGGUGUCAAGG,0.935
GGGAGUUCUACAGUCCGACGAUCUAACUUUAGAGGAGGAUCUGAUGGAUAUGGCAGUGGACGUGGAUUUGGGGAUGGCUAUAAUGGGUAUGGAGAAGGACCUGGAGGUGGCAAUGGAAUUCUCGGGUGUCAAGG,-0.3
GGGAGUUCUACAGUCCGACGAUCGCAGGAAGUAAAAACAAAUGGAAACGCUUCGGAUAGUGGCAGGGGUGGGGGUUGCUAAGGAAAGGGUGGGAUGGGAGUGGGUAAAGAGUUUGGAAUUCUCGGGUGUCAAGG,1.07
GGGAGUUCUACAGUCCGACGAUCCAAGUCCUGUGCUACACAUCGUAUGUACCGAAUCGGGGUUUGGGUUUGGUUUGGGAAAGUAUUAUGUUACGCCGUUCGGAUCUGCACUUCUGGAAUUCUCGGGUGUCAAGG,-0.435
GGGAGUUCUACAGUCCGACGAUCAAGUCCUGUGCUACACAUCGUAUGUACCGAAUCGGGAGGGUUUUUUUGGGUUUGGGAAAGUAUUAUGUUACGCCGUUCGGAUCUGCACUUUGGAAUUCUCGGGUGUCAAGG,0.468
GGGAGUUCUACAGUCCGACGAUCUGGGAGGUGGAUUUUGUUUAUUUUUUUAGCUCAUCUCCAGGGGUGGGAAUUUUUUUUUAAUAUGUGUCAUGAAUAAAGUUGUUUUUGAAAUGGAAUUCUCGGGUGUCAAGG,2.02
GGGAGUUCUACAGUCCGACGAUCCUGUGCUACACAUCGUAUGUACCGAAUCGGGAAAAAAAGGGAAAAAAAGGAAAAAAAGGGGAAAGUAUUAUGUUACGCCGUUCGGAUCUGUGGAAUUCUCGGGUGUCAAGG,0.153
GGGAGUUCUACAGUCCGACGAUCUAACUUUAGAGGAGCAUCUGAUGGAUAUGGCAGUGGACGUGGAUUUGGGGAUGGCUAUAAUGGGUAUGGAGGAGGACCUGGAGGUGGCAAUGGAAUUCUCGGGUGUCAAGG,-0.548

# Study 2
# Target: RNA binding protein fox-1 homolog 2, RRM domain, GST-SBP tag (RBFOX2, Homo sapiens, UniProt O43251-10, residues 100-194)
# Method: RNA Bind-n-Seq
# Form: RNA
# Medium: in vitro
# Tested at: 365 nM
# Setting: natural RNA segment, single round, ends assumed
# Reference: no-protein control
# Reading: higher = stronger binding
# Construct (chain): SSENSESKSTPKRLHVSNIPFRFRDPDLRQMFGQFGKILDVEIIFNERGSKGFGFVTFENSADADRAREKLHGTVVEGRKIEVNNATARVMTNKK
Strand,RBNS enrichment (R)
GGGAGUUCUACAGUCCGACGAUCUGGACACAAGCUUAGAUUCUCUAUGUAUAGUUCCCCGUGUUCACUAACAUGCCCUCUCUGGAAAGCAUAUGUAUAUAACAUGUGUCAUGUCCUUUGGAAACCUGGUCACCUGGAAUUCUCGGGUGCCAA,0.182
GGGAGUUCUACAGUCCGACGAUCCCACCCAUUUGUUGGCUUUUUUGUUUUUUAAUGUCAGAUCUGUUGAGUUGGUUUUUUUGGUUUUGGUUUUUGUUUUUGUUUUUGUUUUUUACUGAGAAAGGAAGGGCCAAUGGAAUUCUCGGGUGCCAA,1.56
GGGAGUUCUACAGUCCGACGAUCAUCUCUUCUUGCCAGUAAGCAGCUUUGGUGGGCAGCAGCAGCUCAUGAAUGGCAAGCUGACAGCUUCUCCUGCUGUUUCCUUCCUCUCUUGGACUGAGUGGGUACGGCCAUGGAAUUCUCGGGUGCCAA,0.524
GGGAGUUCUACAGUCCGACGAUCUGUGCAGGGUUAAACUCCUGAAGUAACUUGUGAGGACUUCAGUGCUUGCUGGUGUCCUGGGCAGCACCAUGAAUGCCUUUACCAAGACAUGCCAAGUUGGAUCCCCCGAAUGGAAUUCUCGGGUGCCAA,1.21
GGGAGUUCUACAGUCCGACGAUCAGGUCUCAGCAAUGAAUCGGGAAGACACGAAAGGUCUAAGACUAAAUAUCCAAAUUAUAAAUACUAAGGAAACUUUGUUUCCAGUUUGGCAAUGAUCCAGUCUAAAGUAGUGGAAUUCUCGGGUGCCAA,0.461
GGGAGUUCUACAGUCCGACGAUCAAAAAAAAACCCAAGAAGGAGUAUUUUGUGUUUAGUCUUUGAUGAGUUUUCUGUAAUUCUCCCCCUCUUUAAAAACAUCACUGAAAUUUCAAUAAAUUUUUAUUGAAAUGUGGAAUUCUCGGGUGCCAA,0.838
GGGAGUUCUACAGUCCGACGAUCCUCAGCACGUUCCUCCCUGGAGAGCGGGCGCCACGGCUGGUAUUCUGCAGGCUGAAUGCAGUCUCCAGACUGGAAACGCAGAGCGGCUCCUCACGCCUAAUCCUGUUGACUGGAAUUCUCGGGUGCCAA,0.764
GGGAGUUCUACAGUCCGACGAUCCUUCUUUCAGCUGUCCCUGUAGCGACAGGUCUAAGAUCUGACUGCCUCCUCCUUUCUCUGGCCUCUUCCCCCUUCCCUCUUCUCUUCAGCUAGGCUAGCUGGUUUGGAGUUGGAAUUCUCGGGUGCCAA,0.355

# Study 3
# Target: Interferon regulatory factor 7, full length, phosphomimetic (IRF7, Homo sapiens, UniProt Q92985, residues 1-503, S471D/S472D/S475D/S476D/S477D/S483D/S484D/S487D)
# Method: protein-binding microarray
# Form: double-stranded DNA, one strand shown
# Medium: in vitro
# Tested at: 2200 nM top
# Setting: 60-bp whole probe
# With: salmon DNA 0.4 mg/ml
# Reference: random background probes
# Reading: higher = stronger binding
# All sequences stand within: GCCTAGCAC … GTCTTGATTCGCTTGACGCTGCTG
# Residues (chain): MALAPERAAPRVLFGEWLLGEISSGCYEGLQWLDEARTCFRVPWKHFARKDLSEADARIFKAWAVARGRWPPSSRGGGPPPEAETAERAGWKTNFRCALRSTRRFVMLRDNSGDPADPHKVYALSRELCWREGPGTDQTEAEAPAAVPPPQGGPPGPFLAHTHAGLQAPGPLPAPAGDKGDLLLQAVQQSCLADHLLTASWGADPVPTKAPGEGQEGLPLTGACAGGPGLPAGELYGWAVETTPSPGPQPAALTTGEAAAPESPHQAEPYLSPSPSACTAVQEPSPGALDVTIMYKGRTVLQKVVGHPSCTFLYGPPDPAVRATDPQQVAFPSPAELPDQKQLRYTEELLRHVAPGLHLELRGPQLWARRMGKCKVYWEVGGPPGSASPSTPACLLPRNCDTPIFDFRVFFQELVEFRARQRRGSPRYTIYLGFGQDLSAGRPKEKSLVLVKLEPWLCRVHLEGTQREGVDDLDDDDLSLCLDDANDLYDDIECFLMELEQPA
Strand,fitted relative affinity [z-score]
TTAGGACTGGGCCTGGGTTAGTGCTAG,-1.05
CTGATTTTGCTTTCATTTATGTGCTAG,3.44
TACGGTTTCGGTATCGGGACGTGCTAG,8.21
GCTTTTATCCCTGACAGAAGGTGCTAG,0.832
GACGAACTGAAACTGGAGACGTGCTAG,1.25
TAAGAACTGAGTTTCGATTAGTGCTAG,3.46
CACGGACTGGGTTTCGGGACGTGCTAG,0.791
GACGATATCAGTCTCGAGACGTGCTAG,0.568
TCACCTATAGGTTCAACACTGTGCTAG,0.911
GACGGACTGGGACTGAGGACGTGCTAG,-0.968
TCATCATTTTCTTTAACACTGTGCTAG,1.35
TTAGGACTGGGTCTGGGTTAGTGCTAG,-0.774
GACTATTTCAGTCTCGAGACGTGCTAG,0.996
TTAGGACTGGACTAACGGTTAGTGCTA,-0.811
GACGGTCTCAGTCTCGGGACGTGCTAG,-0.0887
GACGGTTTCCTTTCCCTAACGTGCTAG,4.65
TTTACTTTCTGAATGCCCTCGTGCTAG,5.91
TTAGGTTTCGAAACTGGGTTAGTGCTA,3.28

# Study 4
# Target: CCNB1, cyclin fold, Cln2 fusion (human)
# Method: yeast growth competition, sequencing
# Medium: yeast
# Setting: weak parent motif
# Reference: not given
# Reading: higher = stronger binding
# Starting sequence: WEE1 docking peptide (human); HKTFRKLRLFDTP
Change,normalised enrichment score
F10M,0.49
K6F,-1.51
K6R,0.333
P13C,0.8
T3L,0.0708
R5T,-0.139

# Further values, each from its own experiment
Molecule,target,assay,system,conditions,scale,quantity,result
"PhoQ, residues 284 288 289 292 302 303 SLCLSL","PhoP, residues 12 14 15 18 19 HHYTI (Escherichia coli, UniProt P23836)","Sort-seq, item: YFP reporter",E. coli,"PhoQ-PhoP variant library, with: 10 µM Mg2+","reference: high Mg2+ state, higher = stronger signaling",fold induction,9.9

# For quick reference, copied from above (study 3):
Strand,fitted relative affinity [z-score]
TAAGAACTGAGTTTCGATTAGTGCTAG,3.46
CACGGACTGGGTTTCGGGACGTGCTAG,0.791
GACGATATCAGTCTCGAGACGTGCTAG,0.568
TCACCTATAGGTTCAACACTGTGCTAG,0.911
GACGGACTGGGACTGAGGACGTGCTAG,-0.968
TCATCATTTTCTTTAACACTGTGCTAG,1.35
